Assay results from different studies.
Protocols differ between the studies behind these lines. ± gives the spread as reported.
Method: steady-state kinetics
B1: ycjS (Escherichia coli, UniProt P77503); chain MKSAMTSSPLRVAIIGAGQVADKVHASYYCTRNDLELVAVCDSRLSQAQALAEKYGNASVWDDPQAMLLAVKPDVVSVCSPNRFHYEHTLMALEAGCHVMCEKPPAMTPEQAREMCDTARKLGKVLAYDFHHRFALDTQQLREQVTNGVLGEIYVTTARALRRCGVPGWGVFTNKELQGGGPLIDIGIHMLDAAMYVLGFPAVKSVNAHSFQKIGTQKSCGQFGEWDPATYSVEDSLFGTIEFHNGGILWLETSFALNIREQSIMNVSFCGDKAGATLFPAHIYTDNNGELMTLMQREIADDNRHLRSMEAFINHVQGKPVMIADAEQGYIIQQLVAALYQSAETGTRVEL
B2: SACOL1063 (Staphylococcus aureus, UniProt Q5HH30); chain MFSKVNNQKMLEDCFYIRKKVFVEEQGVPEESEIDEYESESIHLIGYDNGQPVATARIRPINETTVKIERVAVMKSHRGQGMGRMLMQAVESLAKDEGFYVATMNAQCHAIPFYESLNFKMRGNIFLEEGIEHIEMTKKLTSLN
B3: iodotyrosine deiodinase (Haliscomenobacter hydrossis, UniProt F4KU78); chain MKQKPAFIPYAGAQFEPEEMLSKSAEYYQFMDHRRTVREFSNRAIPLEVIENIVMTASTAPSGAHKQPWTFVVVSDPQIKAKIRQAAEKEEFESYNGRMSNEWLEDLQPFGTDWHKPFLEIAPYLIVVFRKAYDVLPDGTQRKNYYVQESVGIACGFLLAAIHQAGLVALTHTPSPMNFLQKILQRPENERPFLLVPVGYPAEGAMVPDLQRKDKAAVMVVY
B4: Ma-WS/DGAT A144F (Marinobacter nauticus); chain MTPLNPTDQLFLWLEKRQQPMHVGGLQLFSFPEGAPDDYVAQLADQLRQKTEVTAPFNQRLSYRLGQPVWVEDEHLDLEHHFRFEALPTPGRIRELLSFVSAEHSHLMDRERPMWEVHLIEGLKDRQFALYTKVHHSLVDGVSFMRMATRMLSENPDEHGMPPIWDLPCLSRDRGESDGHSLWRSVTHLLGLSGRQLGTIPTVAKELLKTINQARKDPAYDSIFHAPRCMLNQKITGSRRFAAQSWCLKRIRAVCEAYGTTVNDVVTAMCAAALRTYLMNQDALPEKPLVAFVPVSLRRDDSSGGNQVGVILASLHTDVQEAGERLLKIHHGMEEAKQRYRHMSPEEIVNYTALTLAPAAFHLLTGLAPKWQTFNVVISNVPGPSRPLYWNGAKLEGMYPVSIDMDRLALNMTLTSYNDQVEFGLIGCRRTLPSLQRMLDYLEQGLAELELNAGL
B5: protein (Adiantum capillus-veneris, UniProt A0A4Y6I289); chain MTDAVENKQVEFGALEVEGIKFAPSVAALGSTKQLVLGGAGFRGLEISGNLVKFTAIGIYVDEAIIPHLSPKLHGKSIEELCNNELLFEEVLAAPFEKLVRVVFLLPLTGPQYSEKVVERMGLLPNPGIKEESTKQFLEIFKPENFPPRTSLICSFTEEALKVAFMKTDDFPEDADAVIEDKWLARAFLASIIGKDGVSPLAKLSFAERMSRCL
B6: enzyme (Vitis vinifera, UniProt F6HSW4); chain MAVDSGLSSPLGPPACEKDAKALQFIEEMTRNPDQVQEKILAEILSQNGETEYLQRFKLAGATDRDTFKSKVPVVTYEDLQPDIQRIANGDRSPILSSHPISEFLTSSGTSAGERKLMPTIHEEWDRRQKLYSLLMPVMNLYVPGLDKGKGLYFLFVKSETKTPSGLVARPVLTGYYRSEHFKKRPYDPYNVYTSPDEAILCVDSFQSMYAQMLCGLLMHKEVLRVGAVFASGLLRAIRFLQVHWQQLAHDISTGILNPKITDPSVREGLAGILKPSQELADFIIQECSGGNWERIITRIWPNTKYLDVIVTGAMAQYIPTLDYFSGGIPLACTMYASSECYFGLNLKPMSKPSEVSYTIMPNMGYFEFLPHDPSAPPLSRDSPPRLVDLADVEVGKEYELVITTYAGLCRYRVGDILQVTGFHNSAPQFQFIRRKNVLLSIDSDKTDEAELQKAVENASLLLREFNTSVVEYTSFADTKTIPGHYVIYWELLVKDPSNSPTDTVLKQCCLAMEESLNTVYRQGRVADNSIGPLEIRVVKSGTFEELMDYAISRGASINQYKVPRCVNFTPIMELLDSRVLSTYFSPAAPHWTPERRRTD
B7: GTPBP3 A322P/E225K (Homo sapiens, UniProt Q969Y2); chain TRRSSGAPAPGSGATIFALSSGQGRCGIAVIRTSGPASGHALRILTAPRDLPLARHASLRLLSDPRSGEPLDRALVLWFPGPQSFTGEDCVEFHVHGGPAVVSGVLQALGSVPGLRPAEAGEFTRRAFANGKLNLTEVEGLADLIHAETEAQRRQALRQLDGELGHLCRGWAETLTKALAHVEAYIDFGEDDNLEEGVLEQADIKVRALQVALGAHLRDARRGQRLRSGVHVVVTGPPNAGKSSLVNLLSRKPVSIVSPEPGTTRDVLETPVDLAGFPVLLSDTAGLREGVGPVEQEGVRRPRERLEQADLILAMLDASDLASPSSCNFLATVVASVGAQSPSDSSQRLLLVLNKSDLLSPEGPGPGPDLPPHLLLSCLTGEGLDGLLEALRKELAAVCGDPSTDPPLLTRARHQHHLQGCLDALGHYKQSKDLALAAEALRVARGHLTRLTGGGGTEEILDIIFQDFCVGK
B8: alanine racemase H166A (Geobacillus stearothermophilus, UniProt P10724); chain MNDFHRDTWAEVDLDAIYDNVENLRRLLPDDTHIMAVVKANAYGHGDVQVARTALEAGASRLAVAFLDEALALREKGIEAPILVLGASRPADAALAAQQRIALTVFRSDWLEEASALYSGPFPIHFHLKMDTGMGRLGVKDEEETKRIVALIERHPHFVLEGLYTAFATADEVNTDYFSYQYTRFLHMLEWLPSRPPLVHCANSAASLRFPDRTFNMVRFGIAMYGLAPSPGIKPLLPYPLKEAFSLHSRLVHVKKLQPGEKVSYGATYTAQTEEWIGTIPIGYADGWLRRLQHFHVLVDGQKAPIVGRICMDQCMIRLPGPLPVGTKVTLIGRQGDEVISIDDVARHLETINYEVPCTISYRVPRIFFRHKRIMEVRNAIGRGESSA
B9: FNO G29W (Thermobifida fusca, UniProt Q47RA9); chain MIMIMASKSSPHDLPDVSGLSIAVLGGTWDQGRGLARRFAMAGHEVILGSRSAERAQAVAAELGEGLPVRGMDNAGAAEAGDVVIVAVPWDGHRALLESLKDVLAGKIVVDCVNPLGFDKRGAYALPVEEGSAAEQAAAILPDSRVVAAFHHVSAVLLLDPEVEKVDLDVLVLGDDREATDVVRALAARIPGVRGVYGGRLRNAHQVEAFTANLISINRRYKAHAGIRITDI
B10: cyc1 (Streptomyces coelicolor, UniProt Q9K499); chain MHAFPHGTTATPTAIAVPPSLRLPVIEAAFPRQLHPYWPKLQETTRTWLLEKRLMPADKVEEYADGLCYTDLMAGYYLGAPDEVLQAIADYSAWFFVWDDRHDRDIVHGRAGAWRRLRGLLHTALDSPGDHLHHEDTLVAGFADSVRRLYAFLPATWNARFARHFHTVIEAYDREFHNRTRGIVPGVEEYLELRRLTFAHWIWTDLLEPSSGCELPDAVRKHPAYRRAALLSQEFAAWYNDLCSLPKEIAGDEVHNLGISLITHHSLTLEEAIGEVRRRVEECITEFLAVERDALRFADELADGTVRGKELSGAVRANVGNMRNWFSSVYWFHHESGRYMVDSWDDRSTPPYVNNEAAGEK
B11: sacB Y247F (Priestia megaterium, UniProt D5DC07); chain KGNDSKDFNNSYGISHITRDNMVKIPQQQNSDQFKVPAFDESTIKNIASAKGKNASGNTIDLDVWDSWPLQNADGTVATYHGYQIVFALAGDPKDSNDTSVYLFYKKAGDKSIDSWKNAGRVFKDSDKFVPNDPHLKNQTQEWSGSGTLTKDGKVRLFYTDYSGKQYGKQTLTTAQVNMSQPNDNTLKVDGVEDYKSIFDGDGKIYQTVQQFIDEGGFDTGDNHTLRDPHYIEDNGHKYLVFEANTGTEDGYQGEDSLYNRAYYGGNNPFFQSEKKKLLEGSNKEKASLANGALGIIELNDDYTLKKVMKPLITSNTVTDEIERANIFKKDGKWYLFTDSRGSKMTIDGIGQDDVYMLGYVSNTLTGKYKPLNDTGLVLHMDLDPNDKTFTYSHFAVPQTKGDNVVITSYMTNRGFYEDNHSTFAPSFLVNIDGSKTSVVKDRVLEQGQLTVDED
B12: GMPS (Escherichia coli, UniProt P04079); chain MTENIHKHRILILDFGSQYTQLVARRVRELGVYCELWAWDVTEAQIRDFNPSGIILSGGPESTTEENSPRAPQYVFEAGVPVFGVCYGMQTMAMQLGGHVEASNEREFGYAQVEVVNDSALVRGIEDALTADGKPLLDVWMSHGDKVTAIPSDFITVASTESCPFAIMANEEKRFYGVQFHPEVTHTRQGMRMLERFVRDICQCEALWTPAKIIDDAVARIREQVGDDKVILGLSGGVDSSVTAMLLHRAIGKNLTCVFVDNGLLRLNEAEQVLDMFGDHFGLNIVHVPAEDRFLSALAGENDPEAKRKIIGRVFVEVFDEEALKLEDVKWLAQGTIYPDVIESAASATGKAHVIKSHHNVGGLPKEMKMGLVEPLKELFKDEVRKIGLELGLPYDMLYRHPFPGPGLGVRVLGEVKKEYCDLLRRADAIFIEELRKADLYDKVSQAFTVFLPVRSVGVMGDGRKYDWVVSLRAVETIDFMTAHWAHLPYDFLGRVSNRIINEVNGISRVVYDISGKPPATIEWE
Chain of UniProt Q9NZ08 (whole entry, looked up): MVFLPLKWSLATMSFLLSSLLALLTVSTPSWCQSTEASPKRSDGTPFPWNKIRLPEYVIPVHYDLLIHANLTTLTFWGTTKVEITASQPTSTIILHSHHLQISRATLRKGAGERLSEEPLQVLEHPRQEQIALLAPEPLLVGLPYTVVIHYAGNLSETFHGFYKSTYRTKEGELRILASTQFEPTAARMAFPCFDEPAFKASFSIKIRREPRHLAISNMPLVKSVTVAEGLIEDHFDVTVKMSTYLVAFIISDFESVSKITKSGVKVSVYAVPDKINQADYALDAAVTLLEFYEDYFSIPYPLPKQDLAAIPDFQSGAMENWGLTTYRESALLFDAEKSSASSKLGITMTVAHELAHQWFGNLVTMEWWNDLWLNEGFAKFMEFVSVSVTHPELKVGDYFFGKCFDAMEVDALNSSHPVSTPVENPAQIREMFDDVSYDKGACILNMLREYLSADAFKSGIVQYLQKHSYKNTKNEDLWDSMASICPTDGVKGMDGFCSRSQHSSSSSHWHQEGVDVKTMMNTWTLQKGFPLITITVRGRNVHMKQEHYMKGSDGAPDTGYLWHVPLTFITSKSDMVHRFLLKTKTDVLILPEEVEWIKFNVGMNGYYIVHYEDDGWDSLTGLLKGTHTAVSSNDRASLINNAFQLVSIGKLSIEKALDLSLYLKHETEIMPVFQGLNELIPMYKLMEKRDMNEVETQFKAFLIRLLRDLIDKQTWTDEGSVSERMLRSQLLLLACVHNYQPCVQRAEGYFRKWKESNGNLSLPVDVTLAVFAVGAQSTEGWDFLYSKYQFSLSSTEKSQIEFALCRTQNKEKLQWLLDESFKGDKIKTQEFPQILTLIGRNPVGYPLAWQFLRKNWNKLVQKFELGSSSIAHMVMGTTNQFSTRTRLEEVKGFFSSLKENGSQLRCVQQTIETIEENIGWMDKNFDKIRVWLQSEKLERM

Substance	substrate	pH	temperature	setting	with	kcat/Km
B1 (ycjS)	CO[C@H]1O[C@H](CO)[C@@H](O)C(=O)[C@H]1O	pH 7	30 °C		NADH 0.3 mM	23100 ± 2800 M⁻¹ s⁻¹
B2 (SACOL1063)	CC(=O)SCCNC(=O)CCNC(=O)[C@H](O)C(C)(C)COP(=O)(O)OP(=O)(O)OC[C@H]1O[C@@H](n2cnc3c(N)ncnc32)[C@H](O)[C@@H]1OP(=O)(O)O	pH 8	37 °C		L-Thr 10 mM, AcCoA 0-2 mM	12800 M⁻¹ s⁻¹
B3 (iodotyrosine deiodinase)	N#Cc1cc(C[C@H](N)C(=O)O)cc(I)c1O	pH 7.4	25 °C			500 ± 200 M⁻¹ s⁻¹
B4 (Ma-WS/DGAT A144F)	CCCCCC(=O)SCCNC(=O)CCNC(=O)[C@H](O)C(C)(C)COP(=O)(O)OP(=O)(O)OC[C@H]1O[C@@H](n2cnc3c(N)ncnc32)[C@H](O)[C@@H]1OP(=O)(O)O	pH 7.5	25 °C	NaCl 300 mM, apparent	1-hexanol 4 mM	5130 ± 264 M⁻¹ s⁻¹
B5 (protein)	O=C(/C=C/c1ccc(O)cc1)c1ccc(O)cc1O					6580 M⁻¹ s⁻¹
B6 (enzyme)	O=C(O)Cc1cccc2ccccc12	pH 8.6	25 °C			904 M⁻¹ s⁻¹
B7 (GTPBP3 A322P/E225K)	Nc1nc2c(ncn2[C@@H]2O[C@H](COP(=O)(O)OP(=O)(O)OP(=O)(O)O)[C@@H](O)[C@H]2O)c(=O)[nH]1	pH 8	37 °C	KCl 300 mM		350 M⁻¹ s⁻¹
B8 (alanine racemase H166A)	C[C@@H](N)C(=O)O	pH 9	room temperature		NAD+ 10 mM	2200 M⁻¹ s⁻¹
B9 (FNO G29W)	NC(=O)c1ccc[n+](Cc2ccccc2)c1	pH 8	25 °C		F420H2 40 µM	97 ± 15 M⁻¹ s⁻¹
B10 (cyc1)	CC(C)=CCC/C(C)=C/CC/C(C)=C/CO[P@@](=O)(O)OP(=O)(O)O	pH 6.5	30 °C		MgCl2 10 mM	260000 ± 10000 M⁻¹ s⁻¹
alanine aminopeptidase (Neisseria meningitidis, UniProt Q9JYV4)	NC(=O)Cc1cc(=O)oc2cc(NC(=O)[C@@H](N)CC(=O)OCc3ccccc3)ccc12	pH 7.5	37 °C			31000 ± 1000 M⁻¹ s⁻¹
B11 (sacB Y247F)	OC[C@H]1O[C@@](CO)(O[C@H]2O[C@H](CO)[C@@H](O)[C@H](O)[C@H]2O)[C@@H](O)[C@@H]1O	pH 6.9				11600 M⁻¹ s⁻¹
ERAP1 (Homo sapiens, UniProt Q9NZ08)	CC(C)C[C@H](NC(=O)CNC(=O)[C@H](CCC(=O)O)NC(=O)[C@H](Cc1ccccc1)NC(=O)[C@H](CCCNC(=N)N)NC(=O)[C@H](CCCCN)NC(=O)[C@@H](N)Cc1ccc(O)cc1)C(=O)N[C@H](C(=O)N[C@@H](CCC(N)=O)C(=O)N[C@@H](CCCNC(=N)N)C(=O)O)[C@@H](C)O		25 °C			10000 ± 2000 M⁻¹ s⁻¹
B12 (GMPS)	O=c1[nH]c(=O)c2ncn([C@@H]3O[C@H](COP(=O)(O)O)[C@@H](O)[C@H]3O)c2[nH]1			apparent		1400 M⁻¹ s⁻¹
butyrylcholinesterase (Sus scrofa, UniProt A0A4X1VEU5)	CC(=O)SCC[N+](C)(C)C	pH 8	22 °C			2.58e+06 ± 150000 M⁻¹ s⁻¹
Ptb (Listeria monocytogenes, UniProt Q8Y7B7)	CCCC(=O)SCCNC(=O)CCNC(=O)[C@H](O)C(C)(C)COP(=O)(O)OP(=O)(O)OC[C@H]1O[C@@H](n2cnc3c(N)ncnc32)[C@H](O)[C@@H]1OP(=O)(O)O	pH 7.5	25 °C	apparent		8.43e+06 M⁻¹ s⁻¹

A few entries again:
Substance	substrate	pH	temperature	setting	with	kcat/Km
B1 (ycjS)	CO[C@H]1O[C@H](CO)[C@@H](O)C(=O)[C@H]1O	pH 7	30 °C		NADH 0.3 mM	23100 ± 2800 M⁻¹ s⁻¹
B2 (SACOL1063)	CC(=O)SCCNC(=O)CCNC(=O)[C@H](O)C(C)(C)COP(=O)(O)OP(=O)(O)OC[C@H]1O[C@@H](n2cnc3c(N)ncnc32)[C@H](O)[C@@H]1OP(=O)(O)O	pH 8	37 °C		L-Thr 10 mM, AcCoA 0-2 mM	12800 M⁻¹ s⁻¹
